Results gathered from unrelated publications.
Each line is one published result; not all experiments were run side by side. “And” joins repeats or separate records; there may be more than shown. ± gives the spread as reported.

| SMILES | target or system | test | system | setting | scale | quantity | result |
| --- | --- | --- | --- | --- | --- | --- | --- |
| O=C(N/N=C/c1cc[n+](CC2CC2)c2ccccc12)c1ccc2ccc(C(=O)N/N=C/c3cc[n+](CC4CC4)c4ccccc34)nc2n1 | telomeric G4 DNA hybrid-2 | FRET melting | – | 1 µM, DNA 0.2 µM, with: duplex DNA competitor 10 µM | – | ΔTm | 25 ± 1.3 °C |
| Cn1ncc2cc(-c3cncc(Cl)c3N3CCC4(CCNC4=O)CC3)ccc21 | LS174T | gene expression, microarray, refers to: SLC2A4 (GLUT4) mRNA | – | concentration not given, 4 h | relative to: untreated cells | log2 fold change | 1.53 |
| C[n+]1cccc2cc(/C=N/NC(=O)c3cc(C(=O)N/N=C/c4ccc5c(ccc[n+]5C)c4)ncn3)ccc21 | telomeric G4 DNA hybrid-2 | FRET melting | – | 1 µM, DNA 0.2 µM | – | ΔTm | 4.2 ± 0.2 °C |
| COCCOCCOCCNC(=O)Cc1cc(CC(=O)N[C@H]2C[C@H]3C(=O)Nc4cc(OCCOCCOCCOC)cc(n4)C(=O)N4CCC[C@H]4C(=O)Nc4cc(OCCOCCOCCOC)cc(n4)C(=O)N4CCC[C@H]4C(=O)Nc4cc(OCCOCCOCCOC)cc(n4)C(=O)N3C2)cc(CC(=O)N[C@H]2C[C@H]3C(=O)Nc4cc(OCCOCCOCCOC)cc(n4)C(=O)N4CCC[C@H]4C(=O)Nc4cc(OCCOCCOCCOC)cc(n4)C(=O)N4CCC[C@H]4C(=O)Nc4cc(OCCOCCOCCOC)cc(n4)C(=O)N3C2)c1 | – | anion binding, ITC | water/methanol, 70 % by volume | with: selenate | – | ΔH | -5.1 kJ/mol |
| C[n+]1cccc2cc(/C=N/NC(=O)c3cccc(C(=O)N/N=C/c4ccc5c(ccc[n+]5C)c4)c3)ccc21 | telomeric G4 DNA hybrid-2 | FRET melting | – | 1 µM, DNA 0.2 µM, with: duplex DNA competitor 10 µM | – | ΔTm | 7.2 ± 0.6 °C |
| C=C(NC(=O)c1csc(-c2nc3c(cc2O)-c2nc(cs2)C(=O)NC(C(C)O)C(=O)NC(=C(C)OC)c2nc(cs2)C(=O)NC2c4nc(cs4)C(=O)NC(COC(=O)c4c5c6c(cccc6n4O)COC(=O)C(OC4CC(C)(O)C(N(C)C)C(C)O4)C2OC5)c2nc-3cs2)n1)C(N)=O (stereo not shown) | Streptococcus pneumoniae | – | -25, immunocompromised mice, lung infection, lung | 2 mg/kg/day once daily, 24 h post-dose | – | bacterial load | 4.4 log CFU/g |
| CN1CCCNC(=O)c2cccc(c2)C(=O)NCCCN(C)CCCNc2cccc3c2C(=O)c2cccc(c2C3=O)NCCC1 | SAS | RNA-Seq, refers to: PLCXD2 mRNA | – | 1 µM, 6 h | relative to: untreated cells | log2 fold change | 1.07 |
| O=C(N/N=C/c1cc[n+](CC2CC2)c2ccccc12)c1cc(C(=O)N/N=C/c2cc[n+](CC3CC3)c3ccccc23)ncn1 | telomeric G4 DNA hybrid-2 | FRET melting | – | 1 µM, DNA 0.2 µM | – | ΔTm | 8.9 ± 1 °C |
| C=CC(=O)Nc1cccc(Cn2ncc3cnc(Nc4cnn(CCOC)c4)nc32)c1 | RIPK5 human | binding, KINOMEscan | – | 100 nM | lower = stronger binding | percent of control | 88% |
| CC(C)(C)c1cc(-c2ccc3cc4ccccc4nc3n2)nc(-c2ccc3cc4ccccc4nc3n2)c1.[Cl-].[Cl-].[Ru+2].c1ccc2cc3nc4c5cccnc5c5ncccc5c4nc3cc2c1 | B16-F10 | resazurin | – | with: light 633 nm, 20 mW, 100 J/cm2 | – | EC50 | 49.9 µM |
| COC1CN([C@H]2CC[C@H]([C@@]3(C)Oc4c(Cl)cc(C(=O)NCc5c(SC)cc(C)[nH]c5=O)c(C)c4O3)CC2)C1 | – | RNA-seq, refers to: SCARF1 mouse homolog | mouse, HT-1376 xenograft, whole blood | dose not given | relative to: vehicle | log2 fold change | 0.247 |
| N=C(N)NCCC[C@@H]1NC(=O)[C@H](CCCNC(=N)N)NC(=O)[C@@H](CCCNC(=N)N)NC(=O)[C@@H](CCCNC(=N)N)NC(=O)[C@@H](C(c2ccccc2)c2ccccc2)NC(=O)[C@H](Cc2c[nH]c3ccccc23)NC(=O)[C@@H](C(c2ccccc2)c2ccccc2)NC1=O | Aspergillus fumigatus | XTT | Af 293 | MIC, 24 h, pre-formed biofilm | – | biofilm reduction | 35 to 38% |
| O=C(N/N=C/c1cc[n+](Cc2ccccc2)c2ccccc12)c1cccc(C(=O)N/N=C/c2cc[n+](Cc3ccccc3)c3ccccc23)n1 | telomeric G4 DNA hybrid-2 | FRET melting | – | 1 µM, DNA 0.2 µM, with: duplex DNA competitor 10 µM | – | ΔTm | 24.9 ± 1.5 °C |
| Cc1ncsc1-c1ccc(C(C)NC(=O)C2CC(O)CN2C(=O)C(NC(=O)CCCCCCCCCCN2CCCC(Nc3ncc(Cl)c(Nc4ccccc4S(=O)(=O)C(C)C)n3)C2)C(C)(C)C)cc1 (stereo not shown) | 22Rv1 | RNA-seq, refers to: SLC2A12 mRNA | – | concentration not given | relative to: DMSO | log2 fold change | -1.85 |
| C=CC(=O)N1[C@H](c2ccc3c(c2)OCO3)c2[nH]c3ccccc3c2C[C@@H]1C(=O)N1CCN(C)CC1 | human cyclin E1 N112C-3xFLAG:CDK2 | co-IP with TMT proteomics, refers to: RPS5 | – | concentration not given, P46782 | relative to: wild type DMSO | relative co-enrichment | 104% |
| CNS(=O)(=O)Nc1nccc(Cc2c(C)c3ccc(Oc4ncccc4F)cc3oc2=O)c1F | RMG-I | cell viability, CellTiter-Glo | – | 7 days | – | IC50 | 0.0035 µM |
| CC(C)(C)c1cc(-c2ccc3cccnc3n2)nc(-c2ccc3cccnc3n2)c1.COc1ccncc1.[Cl-].[Cl-].[Ru+2].c1ccc2cc3nc4c5cccnc5c5ncccc5c4nc3cc2c1 | B16-F10 | photocytotoxicity, resazurin | – | visible light 400-700 nm, 20 mW, 100 J/cm2 | – | EC50 | 0.871 µM and 0.87 µM |
| C[n+]1ccc(/C=N/NC(=O)c2cccc(C(=O)N/N=C/c3cc[n+](C)cc3)n2)cc1 | telomeric G4 DNA hybrid-2 | FRET melting | – | 1 µM, DNA 0.2 µM, with: duplex DNA competitor 10 µM | – | ΔTm | 8.3 ± 0.2 °C |
| CC(=O)[O-].O.O.O.O.[Co+2].[O-]c1ccc(Br)cc1C=NCCN1CCOCC1 | – | nitric oxide scavenging | – | 120 µM | – | inhibition | 27.6% |
| Nc1ncc(-c2cc(-c3cnn(CC(F)(F)F)c3)ncc2F)nc1C(=O)NC1CNCC(F)C1 (stereo not shown) | CSF1R-autoinhibited | KINOMEscan competition binding | – | 1 µM | relative to: DMSO control | remaining binding | 100% |
| O=C(N/N=C/c1ccc2c(ccc[n+]2Cc2ccccc2)c1)c1cccc(C(=O)N/N=C/c2ccc3c(ccc[n+]3Cc3ccccc3)c2)n1 | telomeric G4 DNA hybrid-2 | FRET melting | – | 1 µM, DNA 0.2 µM | – | ΔTm | 23.2 ± 0.5 °C |
| COc1cc(O)ccc1CCC(c1ccc(O)cc1)c1cc2c(c(C)c1O)OC(c1ccc(O)cc1)CC2 (mixture of isomers) | – | refers to: 15-HETE | human whole blood | 0.3 µM, with: Escherichia coli | – | amount | 3690 ± 881 pg/mL blood |
| C[n+]1ccc(/C=N/NC(=O)c2cncc(C(=O)N/N=C/c3cc[n+](C)c4ccccc34)n2)c2ccccc21 | telomeric G4 DNA hybrid-2 | FRET melting | – | 1 µM, DNA 0.2 µM, with: duplex DNA competitor 10 µM | – | ΔTm | 23.7 ± 0.8 °C |
| c1ccc(-c2n[nH]cc2-c2ccnc3ccccc23)nc1 | SAT4 (Candida albicans) | kinase binding, MIB/MS competition | Candida albicans lysate | 10 µM | relative to: DMSO | log2 fold change | -0.02 |
| CC(C)c1ccc(N(C)c2ccc3c(c2)OCC[C@H]3CNc2cnccc2C(=O)O)cc1 | KATO III | cell viability, CellTiter-Glo | – | 7 days | – | IC50 | 0.0438 µM |

For quick reference, copied from above:
| SMILES | target or system | test | system | setting | scale | quantity | result |
| --- | --- | --- | --- | --- | --- | --- | --- |
| Cn1ncc2cc(-c3cncc(Cl)c3N3CCC4(CCNC4=O)CC3)ccc21 | LS174T | gene expression, microarray, refers to: SLC2A4 (GLUT4) mRNA | – | concentration not given, 4 h | relative to: untreated cells | log2 fold change | 1.53 |
